Assay results collected from several papers.
Numbered parts are unrelated; each lists some results of a single study. Changes are numbered by the printed parent chain.

Sample 1
Target: CCND3, cyclin fold, Cln2 fusion (human)
Method: yeast growth competition, sequencing
Sample: yeast
Setting: weak parent motif
Baseline: not given
Reading: higher = stronger binding
Parent: E2F1 docking peptide (human); PPVKRRLDFETDH; partner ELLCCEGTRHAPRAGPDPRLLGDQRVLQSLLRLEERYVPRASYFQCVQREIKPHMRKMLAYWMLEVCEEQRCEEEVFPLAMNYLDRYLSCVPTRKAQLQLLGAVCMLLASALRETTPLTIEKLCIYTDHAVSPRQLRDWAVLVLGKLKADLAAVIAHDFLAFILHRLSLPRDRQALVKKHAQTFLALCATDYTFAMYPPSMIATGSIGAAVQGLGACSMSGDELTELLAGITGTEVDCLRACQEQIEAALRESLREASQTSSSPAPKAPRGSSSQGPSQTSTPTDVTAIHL
| Substitution | normalised enrichment score |
| --- | --- |
| F9Q | 0.319 |
| R5E | -0.257 |
| P2Q | 0.0267 |
| P2L | 0.0422 |
| L7Y | -0.0557 |
| K4A | 0.97 |
| K4E | 0.0316 |

Sample 2
Target: Interferon regulatory factor 5, full length, phosphomimetic (IRF5, Homo sapiens, UniProt Q13568-2, residues 1-514, S451D/S453D/S456D/S462D)
Method: protein-binding microarray
Molecule type: double-stranded DNA, one strand shown
Sample: in vitro
Concentration: 940 nM top
Setting: 60-bp whole probe
Together with: salmon DNA 0.4 mg/ml
Baseline: random background probes
Reading: higher = stronger binding
Constant ends, left off below: GCCTAGCAC … GTCTTGATTCGCTTGACGCTGCTG
| Oligonucleotide | fitted relative affinity |
| --- | --- |
| GACGGTATCGACACTGGAGACGTGCTA | 3.72 z-score |
| GCACATGAGCCAAGCCTGCCGTGCTAG | -0.623 z-score |
| TTGTCTTTTCATTTTCTTTAGTGCTAG | 2.11 z-score |
| GACTATTTCAGTATCGAGACGTGCTAG | 3.15 z-score |
| TCATTCTTCCCTGTGAAACTGTGCTAG | 0.871 z-score |

Sample 3
Target: Histone acetyltransferase KAT6A, winged helix 2, GST fusion (KAT6A, Homo sapiens, UniProt Q92794, residues 85-181)
Method: protein binding microarray
Molecule type: double-stranded DNA, one strand shown
Sample: in vitro
Concentration: not given
Setting: 8-mer, flanks averaged, mean of 2 arrays, mostly near background
Baseline: not given
Reading: higher = stronger binding
Target sequence (chain): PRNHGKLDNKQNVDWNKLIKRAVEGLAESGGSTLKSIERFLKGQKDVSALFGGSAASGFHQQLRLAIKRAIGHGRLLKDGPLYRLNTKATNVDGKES
| Oligonucleotide | E-score |
| --- | --- |
| AGTATAGC | -0.0141 |
| TATGGAAA | 0.00443 |
| ATTCCTCG | -0.0191 |
| CGTGCGTA | 0.0824 |
| GTTTGGAA | 0.0122 |
| CAAGCGCA | 0.17 |
| CGTCCATA | 0.0525 |

Single results of other studies
| Substance | target | assay | system | conditions | scale | measurement | value |
| --- | --- | --- | --- | --- | --- | --- | --- |
| PhoQ, residues 284 288 289 292 302 303 NLALSC | PhoP, residues 12 14 15 18 19 AQALL (Escherichia coli, UniProt P23836) | Sort-seq, refers to: YFP reporter | E. coli | PhoQ-PhoP variant library, together with: 10 µM Mg2+ | baseline: high Mg2+ state, higher = stronger signaling | fold induction | 1.94 |

A few entries again (sample 2):
| Oligonucleotide | fitted relative affinity |
| --- | --- |
| TCATTCTTCCCTGTGAAACTGTGCTAG | 0.871 z-score |
| GCACATGAGCCAAGCCTGCCGTGCTAG | -0.623 z-score |
